Measurements of several laboratories.
Compare with care: the assays were run in different laboratories. pKd: −log10 of the molar value.
U2AF2: U2AF2 148-342 (Homo sapiens, UniProt P26368)
Chain of UniProt P26368 (whole entry, looked up): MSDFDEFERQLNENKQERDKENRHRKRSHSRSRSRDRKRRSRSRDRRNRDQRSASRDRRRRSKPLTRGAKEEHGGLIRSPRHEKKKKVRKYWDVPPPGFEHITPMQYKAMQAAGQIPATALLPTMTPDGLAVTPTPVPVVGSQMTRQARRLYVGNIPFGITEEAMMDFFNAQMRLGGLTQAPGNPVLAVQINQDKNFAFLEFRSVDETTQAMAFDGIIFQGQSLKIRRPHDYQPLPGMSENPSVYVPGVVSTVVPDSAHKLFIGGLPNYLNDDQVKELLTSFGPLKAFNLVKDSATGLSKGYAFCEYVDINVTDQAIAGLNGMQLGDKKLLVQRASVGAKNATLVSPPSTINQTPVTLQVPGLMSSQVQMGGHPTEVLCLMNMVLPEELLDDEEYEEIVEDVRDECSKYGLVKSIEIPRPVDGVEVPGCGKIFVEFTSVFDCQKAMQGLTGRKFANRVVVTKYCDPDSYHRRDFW
B1: AP3D1 1-617 (Homo sapiens, UniProt O14617); sequence looked up; chain MALKMVKGSIDRMFDKNLQDLVRGIRNHKEDEAKYISQCIDEIKQELKQDNIAVKANAVCKLTYLQMLGYDISWAAFNIIEVMSASKFTFKRIGYLAASQSFHEGTDVIMLTTNQIRKDLSSPSQYDTGVALTGLSCFVTPDLARDLANDIMTLMSHTKPYIRKKAVLIMYKVFLKYPESLRPAFPRLKEKLEDPDPGVQSAAVNVICELARRNPKNYLSLAPLFFKLMTSSTNNWVLIKIIKLFGALTPLEPRLGKKLIEPLTNLIHSTSAMSLLYECVNTVIAVLISLSSGMPNHSASIQLCVQKLRILIEDSDQNLKYLGLLAMSKILKTHPKSVQSHKDLILQCLDDKDESIRLRALDLLYGMVSKKNLMEIVKKLMTHVDKAEGTTYRDELLTKIIDICSQSNYQYITNFEWYISILVELTRLEGTRHGHLIAAQMLDVAIRVKAIRKFAVSQMSALLDSAHLLASSTQRNGICEVLYAAAWICGEFSEHLQEPHHTLEAMLRPRVTTLPGHIQAVYVQNVVKLYASILQQKEQAGEAEGAQAVTQLMVDRLPQFVQSADLEVQERASCILQLVKHIQKLQAKDVPVAEEVSALFAGELNPVAPKAQKKVPV
B2: SPOP R121Q (Homo sapiens, UniProt O43791); sequence looked up; chain MSRVPSPPPPAEMSSGPVAESWCYTQIKVVKFSYMWTINNFSFCREEMGEVIKSSTFSSGANDKLKWCLRVNPKGLDEESKDYLSLYLLLVSCPKSEVRAKFKFSILNAKGEETKAMESQQAYRFVQGKDWGFKKFIRRDFLLDEANGLLPDDKLTLFCEVSVVQDSVNISGQNTMNMVKVPECRLADELGGLWENSRFTDCCLCVAGQEFQAHKAILAARSPVFSAMFEHEMEESKKNRVEINDVEPEVFKEMMCFIYTGKAPNLDKMADDLLAAADKYALERLKVMCEDALCSNLSVENAAEILILADLHSADQLKTQAVDFINYHASDVLETSGWKSMVVSHPHLVAEAYRSLASAQCPFLGPPRKRLKQS
B3: human emerin; sequence looked up; chain MDNYADLSDTELTTLLRRYNIPHGPVVGSTRRLYEKKIFEYETQRRRLSPPSSSAASSYSFSDLNSTRGDADMYDLPKKEDALLYQSKGYNDDYYEESYFTTRTYGEPESAGPSRAVRQSVTSFPDADAFHHQVHDDDLLSSSEEECKDRERPMYGRDSAYQSITHYRPVSASRSSLDLSYYPTSSSTSFMSSSSSSSSWLTRRAIRPENRAPGAGLGQDRQVPLWGQLLLFLVFVIVLFFIYHFMQAEEGNPF
B4: cheA 1-654 (Escherichia coli, UniProt P07363); chain MSMDISDFYQTFFDEADELLADMEQHLLVLQPEAPDAEQLNAIFRAAHSIKGGAGTFGFSVLQETTHLMENLLDEARRGEMQLNTDIINLFLETKDIMQEQLDAYKQSQEPDAASFDYICQALRQLALEAKGETPSAVTRLSVVAKSEPQDEQSRSQSPRRIILSRLKAGEVDLLEEELGHLTTLTDVVKGADSLSAILPGDIAEDDITAVLCFVIEADQITFETVEVSPKISTPPVLKLAAEQAPTGRVEREKTTRSNESTSIRVAVEKVDQLINLVGELVITQSMLAQRSSELDPVNHGDLITSMGQLQRNARDLQESVMSIRMMPMEYVFSRYPRLVRDLAGKLGKQVELTLVGSSTELDKSLIERIIDPLTHLVRNSLDHGIELPEKRLAAGKNSVGNLILSAEHQGGNICIEVTDDGAGLNRERILAKAASQGLTVSENMSDDEVAMLIFAPGFSTAEQVTDVSGRGVGMDVVKRNIQKMGGHVEIQSKQGTGTTIRILLPLTLAILDGMSVRVADEVFILPLNAVMESLQPREADLHPLAGGERVLEVRGEYLPIVELWKVFNVAGAKTEATQGIVVILQSGGRRYALLVDQLIGQHQVVVKNLESNYRKVPGISAATILGDGSVALIVDVSALQAINREQRMANTAA
B5: clcA 1-465 C85A/L406A/I409A/I410A/L413A (Escherichia coli, UniProt P37019); chain MKTDTPSLETPQAARLRRRQLIRQLLERDKTPLAILFMAAVVGTLVGLAAVAFDKGVAWLQNQRMGALVHTADNYPLLLTVAFLASAVLAMFGYFLVRKYAPEAGGSGIPEIEGALEDQRPVRWWRVLPVKFFGGLGTLGGGMVLGREGPTVQIGGNIGRMVLDIFRLKGDEARHTLLATGAAAGLAAAFNAPLAGILFIIEEMRPQFRYTLISIKAVFIGVIMSTIMYRIFNHEVALIDVGKLSDAPLNTLWLYLILGIIFGIFGPIFNKWVLGMQDLLHRVHGGNITKWVLMGGAIGGLCGLLGFVAPATSGGGFNLIPIATAGNFSMGMLVFIFVARVITTLLCFSSGAPGGIFAPMLALGTVLGTAFGMVAVELFPQYHLEAGTFAIAGMGALLAASIRAPATGAALVAEMTDNYQLILPMIITGLGATLLAQFTGGKPLYSAILARTLAKQEAEQLARSK
B6: dlg1 1-97 L14G (Drosophila melanogaster, UniProt P31007); sequence looked up; chain MPVKKQEAHRALEGLEDYHARLSEPQDRALRIAIERVIRIFKSRLFQALLDIQEFYELTLLDDSKSIQQKTAETLQIATKWEKDGQAVKIADFIKSS
B7: cas1 1-324 (Pseudomonas aeruginosa, UniProt Q02ML7); chain MDDISPSELKTILHSKRANLYYLQHCRVLVNGGRVEYVTDEGRHSHYWNIPIANTTSLLLGTGTSITQAAMRELARAGVLVGFCGGGGTPLFSANEVDVEVSWLTPQSEYRPTEYLQRWVGFWFDEEKRLVAARHFQRARLERIRHSWLEDRVLRDAGFAVDATALAVAVEDSARALEQAPNHEHLLTEEARLSKRLFKLAAQATRYGEFVRAKRGSGGDPANRFLDHGNYLAYGLAATATWVLGIPHGLAVLHGKTRRGGLVFDVADLIKDSLILPQAFLSAMRGDEEQDFRQACLDNLSRAQALDFMIDTLKDVAQRSTVSA
B8: per 1-575 (Drosophila melanogaster, UniProt P07663); sequence looked up; chain MEGGESTESTHNTKVSDSAYSNSCSNSQSQRSGSSKSRLSGSHSSGSSGYGGKPSTQASSSDMIIKRNKDKSRKKKKNKGAGQGAGQAQTLISASTSLEGRDEEKPRPSGTGCVEQQICRELQDQQHGEDHSEPQAIEQLQQEEEEDQSGSESEADRVEGVAKSEAAQSFPIPSPLSVTIVPPSMGGCGGVGHAAGLDSGLAKFDKTWEAGPGKLESMTGVGAAAAGTGQRGERVKEDSFCCVISMHDGIVLYTTPSITDVLGYPRDMWLGRSFIDFVHLKDRATFASQITTGIPIAESRGSVPKDAKSTFCVMLRRYRGLKSGGFGVIGRPVSYEPFRLGLTFREAPEEARPDNYMVSNGTNMLLVICATPIKSSYKVPDEILSQKSPKFAIRHTATGIISHVDSAAVSALGYLPQDLIGRSIMDFYHHEDLSVMKETYETVMKKGQTAGASFCSKPYRFLIQNGCYVLLETEWTSFVNPWSRKLEFVVGHHRVFQGPKQCNVFEAAPTCKLKISEEAQSRNTRIKEDIVKRLAETVSRPSDTVKQEVSRRCQALASFMETLMDEVSRADLKLE
B9: human DDX3Y; sequence looked up; chain SHVVVKNDPELDQQLANLDLNSEKQSGGASTASKGRYIPPHLRNREASKGFHDKDSSGWSCSKDKDAYSSFGSRDSRGKPGYFSERGSGSRGRFDDRGRSDYDGIGNRERPGFGRFERSGHSRWCDKSVEDDWSKPLPPSERLEQELFSGGNTGINFEKYDDIPVEATGSNCPPHIENFSDIDMGEIIMGNIELTRYTRPTPVQKHAIPIIKGKRDLMACAQTGSGKTAAFLLPILSQIYTDGPGEALKAVKENGRYGRRKQYPISLVLAPTRELAVQIYEEARKFSYRSRVRPCVVYGGADIGQQIRDLERGCHLLVATPGRLVDMMERGKIGLDFCKYLVLDEADRMLDMGFEPQIRRIVEQDTMPPKGVRHTMMFSATFPKEIQMLARDFLDEYIFLAVGRVGSTSENITQKVVWVEDLDKRSFLLDILGATGSDSLTLVFVETKKGADSLEDFLYHEGYACTSIHGDRSQRDREEALHQFRSGKSPILVATAVAARGLDISNVRHVINFDLPSDIEEYVHRIGRTGRVGNLGLATSFFNEKNMNITKDLLDLLVEAKQEVPSWLENMAYEHHYKGGSRGRSKSNRFSGGFGARDYRQSSGSSSSGFGASRGSSSRSGGGGYGNSRGFGGGGYGGFYNSDGYGGNYNSQGVDWWGN
B10: TOP2 C180A/C731A/Q1135C (Saccharomyces cerevisiae, UniProt P06786); AlexaFluor 488/546 labels; sequence looked up; chain MSTEPVSASDKYQKISQLEHILKRPDTYIGSVETQEQLQWIYDEETDCMIEKNVTIVPGLFKIFDEILVNAADNKVRDPSMKRIDVNIHAEEHTIEVKNDGKGIPIEIHNKENIYIPEMIFGHLLTSSNYDDDEKKVTGGRNGYGAKLCNIFSTEFILETADLNVGQKYVQKWENNMSIAHPPKITSYKKGPSYTKVTFKPDLTRFGMKELDNDILGVMRRRVYDINGSVRDINVYLNGKSLKIRNFKNYVELYLKSLEKKRQLDNGEDGAAKSDIPTILYERINNRWEVAFAVSDISFQQISFVNSIATTMGGTHVNYITDQIVKKISEILKKKKKKSVKSFQIKNNMFIFINCLIENPAFTSQTKEQLTTRVKDFGSRCEIPLEYINKIMKTDLATRMFEIADANEENALKKSDGTRKSRITNYPKLEDANKAGTKEGYKCTLVLTEGDSALSLAVAGLAVVGRDYYGCYPLRGKMLNVREASADQILKNAEIQAIKKIMGLQHRKKYEDTKSLRYGHLMIMTDQDHDGSHIKGLIINFLESSFPGLLDIQGFLLEFITPIIKVSITKPTKNTIAFYNMPDYEKWREEESHKFTWKQKYYKGLGTSLAQEVREYFSNLDRHLKIFHSLQGNDKDYIDLAFSKKKADDRKEWLRQYEPGTVLDPTLKEIPISDFINKELILFSLADNIRSIPNVLDGFKPGQRKVLYGCFKKNLKSELKVAQLAPYVSEATAYHHGEQSLAQTIIGLAQNFVGSNNIYLLLPNGAFGTRATGGKDAAAARYIYTELNKLTRKIFHPADDPLYKYIQEDEKTVEPEWYLPILPMILVNGAEGIGTGWSTYIPPFNPLEIIKNIRHLMNDEELEQMHPWFRGWTGTIEEIEPLRYRMYGRIEQIGDNVLEITELPARTWTSTIKEYLLLGLSGNDKIKPWIKDMEEQHDDNIKFIITLSPEEMAKTRKIGFYERFKLISPISLMNMVAFDPHGKIKKYNSVNEILSEFYYVRLEYYQKRKDHMSERLQWEVEKYSFQVKFIKMIIEKELTVTNKPRNAIIQELENLGFPRFNKEGKPYYGSPNDEIAEQINDVKGATSDEEDEESSHEDTENVINGPEELYGTYEYLLGMRIWSLTKERYQKLLKCKQEKETELENLLKLSAKDIWNTDLKAFEVGYQEFLQRDAEARGGNVPNKGSKTKGKGKRKLVDDEDYDPSKKNKKSTARKGKKIKLEDKNFERILLEQKLVTKSKAPTKIKKEKTPSVSETKTEEEENAPSSTSSSSIFDIKKEDKDEGELSKISNKFKKISTIFDKMGSTSATSKENTPEQDDVATKKNQTTAKKTAVKPKLAKKPVRKQQKVVELSGESDLEILDSYTDREDSNKDEDDAIPQRSRRQRSSRAASVPKKSYVETLELSDDSFIEDDEEENQGSDVSFNEED
B11: STV1/VPH1 chimera 1-132 (Saccharomyces cerevisiae); sequence looked up; chain MNQEEAIFRSADMTYVQLYIPLEVIREVTFLLGKMSVFMVMDLNKDLTAFQRGYVNQLRRFDEVERMVGFLNEVVEKHAAETWKYILHIDDEGNDIAQPDMADLINTMEPLSLENVNDMVKEITDCESRARQMEDATDQIEVQKNDLEQYRFILQSGDEFFLKGDNTDSTSYMDEDMIDANGENIAAAIGASVNYVTGVIARDKVATLEQILWRVLRGNLFFKTVEIEQPVYDVKTREYKHKNAFIVFSHGDLIIKRIRKIAESLDANLYDVDSSNEGRSQQLAKVNKNLSDLYTVLKTTSTTLHTELLVIHDQLPVWSAMTKREKYVYTTLNKFQQESQGLIAEGWVPSTELIHLQDSLKDYIETLGSEYSTVFNVIL
Chain of UniProt Q46899 (whole entry, looked up): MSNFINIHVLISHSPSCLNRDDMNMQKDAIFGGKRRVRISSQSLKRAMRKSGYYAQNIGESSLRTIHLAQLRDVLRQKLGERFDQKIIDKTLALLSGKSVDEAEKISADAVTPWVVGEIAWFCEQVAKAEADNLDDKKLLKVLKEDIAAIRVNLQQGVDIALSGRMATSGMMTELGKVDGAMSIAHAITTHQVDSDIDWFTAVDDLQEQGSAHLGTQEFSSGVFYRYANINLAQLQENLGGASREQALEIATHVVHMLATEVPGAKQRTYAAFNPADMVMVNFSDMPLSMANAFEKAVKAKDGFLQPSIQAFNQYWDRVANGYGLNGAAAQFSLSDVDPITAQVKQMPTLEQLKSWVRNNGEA

B1 (AP3D1 1-617) — binding (itself; cryo-EM): binds
B2 (SPOP R121Q) — binding (itself; negative-stain TEM): binds
B3 (human emerin) — log2 fold change (CYB5R4 knockout human cells; PP4 interaction, 3xFLAG-PP4C IP-MS; concentration not given; reference: CYB5R4 KO over parental): 2.41
casC (Escherichia coli, UniProt Q46899) — binding (itself; SEC): binds
B4 (cheA 1-654) — binding (itself; HDX-MS; dimer-monomer exchange): binds
B5 — binding (itself; SEC): binds
B6 (dlg1 1-97 L14G) — binding (itself; SEC): binds
ACAUUCUUC (ssRNA) — pKd (U2AF2; sequencing of bound RNA; RNA; motif only): 5.21
B7 (cas1 1-324) — binding (itself; cryo-EM): binds
UACAUUUUU (ssRNA) — pKd (U2AF2; sequencing of bound RNA; RNA; motif only): 6.28
B8 (per 1-575) — binding (itself; SEC): binds
B9 (human DDX3Y) — log2 fold change (CYB5R4 knockout human cells; PP4 interaction, 3xFLAG-PP4C IP-MS; concentration not given; reference: CYB5R4 KO over parental): -0.76
B10 (TOP2 C180A/C731A/Q1135C) — binding (itself; FRET or BRET; added: ADP, ATP, ADPNP): binds
B11 (STV1/VPH1 chimera 1-132) — binding (itself; SEC): binds
MAKNSNPSAFDRDFGYLMPFLDRVAAAASDLEDASARAELTRLMVEEKARWQRIQELLGG (encD 1-60 (Myxococcus xanthus, UniProt Q1D9P3); sequence looked up) — binding (itself; crystal structure): binds
